Measurements from different studies.
Protocols differ between the studies behind these lines. ± gives the spread as reported.

| Compound | system | conditions | tissue uptake [%ID/g] |
| --- | --- | --- | --- |
| CN1C(=O)[C@@H](Cc2ccc(O)c(I)c2)NC(=O)CNC(=O)[C@H](Cc2ccc3ccccc3c2)NC(=O)[C@H](CCCNC(=N)N)NC(=O)[C@H]1CCCNC(=O)c1ccc(CNC(=O)CN2CCN(CC(=O)O)CCN(CC(=O)O)CCN(CC(=O)O)CC2)cc1 [lutetium-177 labelled] | female CB-17 SCID mouse, Daudi xenograft, spleen | intravenous, 6 h, CXCR4 blocking, added: AMD3100 2 mg/kg coinjected | 0.64 ± 0.55 |
| CCCC[C@H](NC(=O)CNC(=O)CNC(=O)CN1CCN(CC(=O)O)CCN(CC(=O)O)CCN(CC(=O)O)CC1)C(=O)N[C@H]1CC(=O)NCCCC[C@@H](C(N)=O)NC(=O)[C@H](Cc2c[nH]c3ccccc23)NC(=O)[C@H](CCCNC(=N)N)NC(=O)[C@@H](Cc2ccccc2)NC(=O)[C@H](Cc2c[nH]cn2)NC1=O [copper-64 labelled] | C57 mouse B16/F1 melanoma, pancreas | 24 h | 1.4 ± 0.28 |
| CN(C)c1ccc(-c2nc3ccc(OCCCCCN4CCN5CCN(CC4)CC(=O)[O][Al]([18F])[O]C(=O)C5)cc3s2)cc1 | ICR mouse, liver | intravenous, 2 min | 37.7 ± 3.47 |
| CCCC[C@H](NC(=O)CNC(=O)CNC(=O)CN1CCN(CC(=O)O)CCN(CC(=O)O)CCN(CC(=O)O)CC1)C(=O)N[C@H]1CC(=O)NCCCC[C@@H](C(N)=O)NC(=O)[C@H](Cc2c[nH]c3ccccc23)NC(=O)[C@H](CCCNC(=N)N)NC(=O)[C@@H](Cc2ccccc2)NC(=O)[C@H](Cc2c[nH]cn2)NC1=O [lead-203 labelled] | C57 mouse, kidneys | intravenous, 0.056 MBq, 24 h | 4.48 ± 1.14 |
| CC(C)[C@H](NC(=O)[C@@H]1CCCN1C(=O)[C@H](CCCNC(=N)N)NC(=O)[C@H](CS)NC(=O)[C@H](Cc1c[nH]c2ccccc12)NC(=O)[C@H](CCCNC(=N)N)NC(=O)[C@@H](Cc1ccccc1)NC(=O)[C@H](Cc1c[nH]cn1)NC(=O)[C@H](CCC(=O)O)NC(=O)[C@H](CS)NC(=O)[C@H](CS)NC(=O)[C@@H]1CC(=O)N[C@@H](CCCNC(=N)N)C(=O)NCC(=O)N[C@@H](CC(=O)O)C(=O)N[C@H](Cc2ccc(O)cc2)C(=O)N1)C(N)=O [technetium-99m labelled] | C57 mouse, female, B16/F1 melanoma, blood | intravenous, 0.037 MBq, 0.5 h | 6.1 ± 5.05 |
| O=C([O-])CN1CCN(CC(=O)[O-])CCN(CC(=O)NCCc2ccc3c(c2)C2C=CCC2C(c2cc4c(cc2Br)OCO4)N3)CCN(CC(=O)[O-])CC1.[111In+3] (centres unmarked) | mouse, Hec50 endometrial tumour, kidneys | 0.5 h post injection | 2.55 ± 0.3 |
| CCCC[C@H](NC(=O)CNC(=O)CNC(=O)CN1CCN(CC(=O)O)CCN(CC(=O)O)CC1)C(=O)N[C@H]1CC(=O)NCCCC[C@@H](C(N)=O)NC(=O)[C@H](Cc2c[nH]c3ccccc23)NC(=O)[C@H](CCCNC(=N)N)NC(=O)[C@@H](Cc2ccccc2)NC(=O)[C@H](Cc2c[nH]cn2)NC1=O [copper-64 labelled] | female C57 mouse, B16/F1 melanoma, spleen | intravenous, 0.037 MBq, 2 h | 0.25 ± 0.09 |
| CC(C)[C@H](NC(=O)[C@@H]1CCCN1C(=O)[C@H](CCCNC(=N)N)NC(=O)[C@H](CS)NC(=O)[C@H](Cc1c[nH]c2ccccc12)NC(=O)[C@H](CCCNC(=N)N)NC(=O)[C@@H](Cc1ccccc1)NC(=O)[C@H](Cc1c[nH]cn1)NC(=O)[C@H](CCC(=O)O)NC(=O)[C@H](CS)NC(=O)[C@H](CS)NC(=O)CNC(=O)[C@@H]1CC(=O)N[C@@H](CCCNC(=N)N)C(=O)NCC(=O)N[C@@H](CC(=O)O)C(=O)N[C@H](Cc2ccc(O)cc2)C(=O)N1)C(N)=O [technetium-99m labelled] | C57 mouse, female, B16/F1 melanoma, skin | intravenous, 0.037 MBq, 24 h | 0.34 ± 0.16 |

Repeated from above:
| Compound | system | conditions | tissue uptake [%ID/g] |
| --- | --- | --- | --- |
| O=C([O-])CN1CCN(CC(=O)[O-])CCN(CC(=O)NCCc2ccc3c(c2)C2C=CCC2C(c2cc4c(cc2Br)OCO4)N3)CCN(CC(=O)[O-])CC1.[111In+3] (centres unmarked) | mouse, Hec50 endometrial tumour, kidneys | 0.5 h post injection | 2.55 ± 0.3 |
